Results pooled from the literature.
Each line is one published result; not all experiments were run side by side. Values joined by “and” are separate records of one study, mostly repeats; a detail may differ. ± marks the error that the study gave.

Structure (SMILES)	assay	test system	setting	scale	quantity	value
CCC(C)n1ncn(-c2ccc(N3CCN(c4ccc(OCC5COC(Cn6cncn6)(c6ccc(Cl)cc6Cl)O5)cc4)CC3)cc2)c1=O (centres unmarked)		human, plasma	oral, dose not given, day 11 predose, median		trough plasma concentration	29.5 ng/mL
Nc1ncnc2c1c(-c1ccc(Oc3ccccc3)cc1)nn2[C@@H]1CCCN(C(=O)C(O)CO)C1 (some centres unmarked)	measured: maximal concentration	B-LPD patients	hypertension risk threshold, ROC		sensitivity	85.7%
CCC(C)n1ncn(-c2ccc(N3CCN(c4ccc(OCC5COC(Cn6cncn6)(c6ccc(Cl)cc6Cl)O5)cc4)CC3)cc2)c1=O (centres unmarked)		healthy human volunteers	oral, 200 mg, compound alone cohort		incidence of infections	7%
COc1cc(N)c(Cl)cc1C(=O)NC1CCN(CCCOc2ccc(F)cc2)CC1OC (centres unmarked)		male Hartley guinea pigs, anaesthetized	intravenous, 1 mg/kg group, baseline before infusion		heart rate	254 ± 0.6 beats/min
O=C(O)CSc1nnc(Br)n1-c1ccc(C2CC2)c2ccccc12		KM mouse, chronic hyperuricaemia model	dose not given, day 4		body weight	29.2 g and 27.8 g and 28.7 g and 31 g and 24.2 g and 25.1 g
O=C1CC[C@H](N2Cc3cc(N4CCN(CC5CCN(c6ccc([C@@H]7c8ccc(O)cc8CC[C@@H]7c7ccccc7)cc6)CC5)CC4)ccc3C2=O)C(=O)N1	rapid equilibrium dialysis	human hepatocytes	2.5 µM, 6 h		recovery	116%
[18F]c1ccc(-c2ccc3c(c2)[nH]c2ccncc23)cn1	ex vivo biodistribution	normal B6SJL mice, brain stem	intravenous, 30 min		uptake	0.484 ± 0.177 SUV
CC(C)(C)c1ccc(C(O)CCCN2CCC(C(O)(c3ccccc3)c3ccccc3)CC2)cc1 (centres unmarked)		male Hartley guinea pigs, anaesthetized	intravenous, 3 mg/kg group, baseline before infusion		heart rate	232 ± 0.6 beats/min
O=C1CC[C@H](Cc2ccc(OS(=O)(=O)O)c(O)c2)O1		human CSF	concentration not given, mean		CSF concentration	not detected
NC1(C(=O)N[C@@H](CCO)c2ccc(Cl)cc2)CCN(c2nc[nH]c3nccc2-3)CC1		metastatic CRPC patients	400 mg b.i.d., grade 3 to 4, treatment-related, together with: enzalutamide 160 mg daily		incidence of lower abdominal pain	0%
Cc1ccc(Sc2ccccc2N2CCNCC2)c(C)c1	measured: Somnolence	healthy adult men	oral, 5 mg daily, 12 days		participants with TEAE	0%
O=C(COc1ccc(Cl)cc1)NC12CC(c3nnc([C@H]4C[C@@H](OC(F)(F)F)C4)o3)(C1)C2	measured: Presyncope	human	200 mg once daily, 28 (unit not given)		adverse event incidence	11.1%
CC(C)C[C@H](NC(=O)CNC(=O)c1cc(Cl)ccc1Cl)B(O)O		newly diagnosed multiple myeloma patients	oral, dose not given, Headache, maintenance		adverse events grade 3	0%
CCCCOC(=O)N1CCN(C(=O)[C@H](CP(=O)(O)O)NC(=O)c2cc(N3CC[C@H](OC)C3)nc(-c3ccccc3)n2)CC1		human	subcutaneous, 8 mg, 1 h post-dose	baseline: baseline	change in QTcB interval	-3.1 ± 21.6 ms
CNC(=O)c1ccc(-c2cnc3ncc(Cc4ccc5ncccc5c4)n3n2)cc1F		HCC patients	oral, 600 mg twice daily, all grades RP2D expansion		AST increased incidence	27%
N#Cc1ccc2c(c1)[C@H]1CCCN(C(=O)c3ccc4[nH]cnc4c3)[C@H]1C2		human, male	40 mg, end of trial		androstenedione level	4.3 nmol/L
CC(=O)c1cc(C(=O)N[C@@H](C)Cn2ccc(-c3ccc(C#N)c(Cl)c3)n2)[nH]n1		human			intravenous clearance	1.8 L/h
CCc1cc(C(=O)NC)c2nccc(N3CCc4c(cc(Cn5ccnc5)cc4-c4cn(C)nc4C(F)(F)F)C3=O)c2c1		Sprague Dawley rats	oral, 50 mg/kg once daily, 7 days	baseline: vehicle	serum ALP change	-6.3%
Cc1cn(-c2cc(NC(=O)c3ccc(C)c(Nc4nccc(-c5cccnc5)n4)c3)cc(C(F)(F)F)c2)cn1	population PK model, typical value	human, plasma	oral, dose not given, fasted state		peripheral volume of distribution (V2)	217 L
O=C1NCCc2nc(OCc3cccc(F)c3)ccc21	measured: tail erection	Sprague-Dawley rat male	oral, 100 mg/kg, 1 h	direction not given	Irwin test score	0
COc1ncc(-c2nc3c(n2C(C)C)[C@H](c2ccc(Cl)cc2)N(c2cc(Cl)cn(C)c2=O)C3=O)c(OC)n1		human patients, plasma	oral, 400 mg, high-dose arm, cycle 1 day 1		median half-life	18.8 h
COc1ccc([C@@H](O)c2cc(-c3ncnc4cc(N5CCOCC5)ccc34)c(F)cc2Cl)nn1		locally advanced rectal cancer patients	100 mg, together with: capecitabine and radiotherapy		anaemia TEAE incidence	17%

Structure (SMILES)	assay	test system	setting	scale	quantity	value
CCN1/C(=C/C(C)=O)Sc2ccc(F)cc21		cynomolgus monkey	oral, 10 mg/kg, 24 h post-dose	baseline: pre-dose	diastolic blood pressure change	110 ± 9.4%
O=C(O)CCC(=O)O.[2H]C([2H])([2H])Oc1cc(C)c2[nH]ccc2c1CN1CC[C@@H](C2CC2)C[C@H]1c1ccc(C(=O)O)cc1	multiple ascending dose	healthy Chinese subjects	50 mg twice daily		subjects with neutropenia	0%
Cl.[2H]C([2H])([2H])CC(=O)c1cnc(NC(=O)C2CC2)cc1Nc1cccc(-c2ncn(C([2H])([2H])[2H])n2)c1OC		human, fasted, multiple dose	oral, 20 mg once daily, tablet, day 14, geometric mean		half-life	9.18 h
CN[C@H](CC(C)C)C(=O)N[C@H]1C(=O)N[C@@H](CC(N)=O)C(=O)N[C@H]2C(=O)N[C@H]3C(=O)N[C@H](C(=O)N[C@H](C(=O)O)c4cc(O)cc(O)c4-c4cc3ccc4O)[C@H](O)c3ccc(c(Cl)c3)Oc3cc2cc(c3O[C@@H]2O[C@H](CO)[C@@H](O)[C@H](O)[C@H]2O[C@H]2C[C@](C)(N)[C@H](O)[C@H](C)O2)Oc2ccc(cc2Cl)[C@H]1O	electrochemical aptamer sensor	male C57BL/6J mouse, thalamus	intravenous bolus, 35 mg/kg		absorption rate constant	0.25 h⁻¹
CC[C@H](C)[C@H](NC(=O)[C@H](Cc1ccccc1)NC(=O)[C@H](CCC(=O)O)NC(=O)[C@H](CCCCNC(=O)COCCOCCNC(=O)COCCOCCNC(=O)CC[C@H](NC(=O)CCCCCCCCCCCCCCCCC(=O)O)C(=O)O)NC(=O)[C@H](C)NC(=O)[C@H](C)NC(=O)[C@H](CCC(N)=O)NC(=O)CNC(=O)[C@H](CCC(=O)O)NC(=O)[C@H](CC(C)C)NC(=O)[C@H](Cc1ccc(O)cc1)NC(=O)[C@H](CO)NC(=O)[C@H](CO)NC(=O)[C@@H](NC(=O)[C@H](CC(=O)O)NC(=O)[C@H](CO)NC(=O)[C@@H](NC(=O)[C@H](Cc1ccccc1)NC(=O)[C@@H](NC(=O)CNC(=O)[C@H](CCC(=O)O)NC(=O)C(C)(C)NC(=O)[C@@H](N)Cc1cnc[nH]1)[C@@H](C)O)[C@@H](C)O)C(C)C)C(=O)N[C@@H](C)C(=O)N[C@@H](Cc1c[nH]c2ccccc12)C(=O)N[C@@H](CC(C)C)C(=O)N[C@H](C(=O)N[C@@H](CCCNC(=N)N)C(=O)NCC(=O)N[C@@H](CCCNC(=N)N)C(=O)NCC(=O)O)C(C)C	12-lead Holter ECG	healthy humans	subcutaneous, 1.5 mg once weekly, 26 h, steady state	baseline: placebo	QT change from baseline	-22.5 ms
C[C@@H](Nc1cc(F)cc(F)c1)c1cc(C(=O)N(C)C)cc2c(=O)cc(N3CCOCC3)oc12	measured: Pneumonitis	advanced solid tumour patients	oral, dose not given, dose expansion		related serious adverse events	0%
O=C(CCCN1CCC(O)(c2ccc(Cl)cc2)CC1)c1ccc(F)cc1		male Hartley guinea pigs, anaesthetized	intravenous, 0.1 mg/kg over 10 min, after infusion		heart rate	222 ± 0.4 beats/min
Nc1nc2c(nc([N+](=O)[O-])n2[C@@H]2O[C@H](CO)[C@@H](O)[C@H]2O)c(=O)[nH]1	depurination, RP-HPLC	citrate-phosphate buffer 0.5 mM	95 min, pH 5, 37 °C		nucleoside remaining fraction	0.95
CCOc1c([C@H](C)n2nc(C)c3c(N)ncnc32)cc(Cl)c(F)c1[C@@H]1CNC(=O)C1		patients, monotherapy	oral, 45 mg once daily, cycle 1 day 15		AUC(0-last) geometric mean	41.6 µM·h
O=C1Cc2cc(CCN3CCN(c4nsc5ccccc45)CC3)c(Cl)cc2N1		male Hartley guinea pigs, anaesthetized	intravenous, 0.1 mg/kg over 10 min, after infusion		heart rate	206 ± 0.4 beats/min
C=CCN1CC(=O)N2[C@@H](Cc3ccc(O)cc3F)C(=O)N(Cc3cccc(N4CC(N5CCN(CC)CC5)C4)n3)C[C@@H]2N1C(=O)NCc1ccccc1		advanced solid tumour patients	oral, 160 mg twice daily, grade ≥3, dose-escalation		treatment-related diarrhoea	0%
CCN(c1cc(-c2ccc(CN3CCOCC3)cc2)cc(C(=O)NCc2c(C)cc(C)[nH]c2=O)c1C)C1CCOCC1		mouse xenograft, stomach	dose not given		organ weight	126 mg
Cn1cc([C@H]2C[C@H]3CSC(N)=N[C@@]3(c3ccc(F)cc3F)CO2)cn1		male 129/SVE mouse, CSF	subcutaneous, 50 mg/kg, 9 h		CSF concentration	439 nM
O=C(Nc1nc2cccc(-c3ccc(CN4CCS(=O)(=O)CC4)cc3)n2n1)C1CC1	measured: infections and infestations	human rheumatoid arthritis patients	oral, 150 mg once daily, 4 weeks, regardless of relatedness		treatment-emergent adverse events	0%
C[C@H]1C=C(Cc2ccccc2)C(=O)O1	FOCUS PEARL groundwater modelling	soil	geometric mean input		KOC	68 mL/g
O=C(O)/C=C/c1ccc(O)c(O[C@@H]2O[C@H](C(=O)O)[C@@H](O)[C@H](O)[C@H]2O)c1		human CSF	concentration not given, mean		CSF concentration	not detected
C[C@@H](N)C1CCN(S(=O)(=O)c2cccc3cnccc23)CC1		healthy volunteers	75 mg, fasted		participants with TEAEs	33.3%
O=C(/C=C/c1ccc(O)c(O)c1)O[C@H]1[C@H](O)C[C@](O)(C(=O)O)C[C@H]1O		human CSF	concentration not given, mean		CSF concentration	not detected
CN[C@@H]1COc2c(S(=O)(=O)NC(=O)Nc3c4c(cc5c3CCC5)CCC4)cnn2C1		human, plasma	oral, 900 mg twice daily, D10		predose plasma concentration	4300 ng/mL
O=C(O)CNC(=O)c1ccccc1O		human CSF	concentration not given, mean		CSF concentration	not detected
CN(C(=O)n1cnc(-c2cccnc2)c1)C1CCCCC1		Wistar rat, midbrain	oral, 10 mg/kg, 1 h, single dose		tissue concentration	80 ± 15.9 ng/g
Cc1ccc([C@@H]2O[C@H](CO)[C@@H](O)[C@H](O)[C@H]2O)cc1Cc1ccc(-c2ccc(F)cc2)s1		Japanese type 2 diabetes patients	100 mg, day 5, 24 h urine collection	baseline: baseline	urinary potassium excretion change	0.073 mEq

Excerpt of the above:
Structure (SMILES)	assay	test system	setting	scale	quantity	value
CN[C@@H]1COc2c(S(=O)(=O)NC(=O)Nc3c4c(cc5c3CCC5)CCC4)cnn2C1		human, plasma	oral, 900 mg twice daily, D10		predose plasma concentration	4300 ng/mL
Cn1cc([C@H]2C[C@H]3CSC(N)=N[C@@]3(c3ccc(F)cc3F)CO2)cn1		male 129/SVE mouse, CSF	subcutaneous, 50 mg/kg, 9 h		CSF concentration	439 nM
O=C1CC[C@H](Cc2ccc(OS(=O)(=O)O)c(O)c2)O1		human CSF	concentration not given, mean		CSF concentration	not detected
